# Published values pooled from the literature.
# Each line is one published result; not all experiments were run side by side. Several values in a cell are separate wells, animals, samples, runs or records.
# JAK2: Tyrosine-protein kinase JAK2 (JAK2, Homo sapiens, UniProt O60674)
# UniProt O60674, sequence (whole entry, looked up): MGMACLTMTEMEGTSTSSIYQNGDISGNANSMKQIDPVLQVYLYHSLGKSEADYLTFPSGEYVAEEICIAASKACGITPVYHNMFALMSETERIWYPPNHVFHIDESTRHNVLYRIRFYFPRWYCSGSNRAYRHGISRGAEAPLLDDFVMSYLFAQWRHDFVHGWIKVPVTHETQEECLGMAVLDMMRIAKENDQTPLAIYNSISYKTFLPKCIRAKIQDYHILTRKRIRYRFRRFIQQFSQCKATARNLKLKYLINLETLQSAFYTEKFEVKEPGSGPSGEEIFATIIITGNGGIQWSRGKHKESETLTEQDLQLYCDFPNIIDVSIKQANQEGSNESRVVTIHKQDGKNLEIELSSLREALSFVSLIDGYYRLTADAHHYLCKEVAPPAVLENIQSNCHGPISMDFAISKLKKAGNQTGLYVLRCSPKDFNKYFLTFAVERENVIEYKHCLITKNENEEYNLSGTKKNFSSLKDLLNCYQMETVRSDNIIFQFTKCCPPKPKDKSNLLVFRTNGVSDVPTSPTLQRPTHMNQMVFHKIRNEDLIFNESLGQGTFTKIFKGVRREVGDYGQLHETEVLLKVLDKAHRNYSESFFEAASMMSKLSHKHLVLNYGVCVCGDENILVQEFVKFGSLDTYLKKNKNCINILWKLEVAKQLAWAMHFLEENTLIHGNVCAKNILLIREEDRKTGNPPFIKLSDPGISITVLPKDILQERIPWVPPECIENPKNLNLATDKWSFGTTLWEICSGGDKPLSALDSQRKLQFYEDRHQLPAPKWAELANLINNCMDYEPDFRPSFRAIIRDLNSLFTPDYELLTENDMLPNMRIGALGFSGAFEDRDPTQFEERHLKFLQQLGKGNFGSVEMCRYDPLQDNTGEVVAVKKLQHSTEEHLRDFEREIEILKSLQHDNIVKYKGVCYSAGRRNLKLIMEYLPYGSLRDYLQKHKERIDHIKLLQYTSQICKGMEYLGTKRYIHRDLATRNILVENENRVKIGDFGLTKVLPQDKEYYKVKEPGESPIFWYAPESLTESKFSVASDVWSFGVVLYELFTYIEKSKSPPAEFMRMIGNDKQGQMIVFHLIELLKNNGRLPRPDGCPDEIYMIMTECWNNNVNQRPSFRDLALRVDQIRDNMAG
# JAK2 JH1: Tyrosine-protein kinase JAK2, JH1 (JAK2, Homo sapiens, UniProt O60674)
Compound,target,assay,setting,scale,measurement,value
Cc1cnc(Nc2ccc3c(c2)CCN(C(=O)/C=C/C(=O)C(C)C)C3)nc1-c1cnn(C(C)C)c1,JAK2,ADP-Glo kinase,,reference: IC50 JAK1 over IC50 JAK2,selectivity ratio,0.63
Cc1cnc2nc1Nc1cccc(c1)COCc1cc(ccc1OCCN1CCOCC1)N2,JAK2,"inhibitor, Z'-LYTE kinase",1.372 nM,,inhibition,8.7% and 5.25% and 4.17%
Cc1cnc(Nc2ccc3c(c2)CCN(C(=O)/C=C/C(=O)c2ccc(Cl)cc2)C3)nc1-c1cnn(C(C)C)c1,JAK2,ADP-Glo kinase,,reference: IC50 JAK3 over IC50 JAK2,selectivity ratio,> 73.2
Cc1cnc2nc1Nc1cccc(c1)COCCCCOCc1cc(ccc1OCCN1CCCC1)N2,JAK2,"inhibitor, Z'-LYTE kinase",13.72 nM,,inhibition,9.73% and 7.9% and 11.4%
Cc1cnc(Nc2ccc3c(c2)CCN(C(=O)/C=C/C(=O)C2CCC(C)CC2)C3)nc1-c1cnn(C(C)C)c1 (stereo not shown),JAK2,ADP-Glo kinase,,reference: IC50 JAK1 over IC50 JAK2,selectivity ratio,> 14.6
O=C(Cc1ccc(OCc2ccccc2)cc1)NC1(C(=O)O)CCN(C(=O)c2ccc(-c3cccc(Cl)c3)cc2)CC1,JAK2,"enzyme activity, inhibitor",10 µM,,activity vs control,116%
CNC(=O)C1CCN(c2cc(C)c(F)cc2NC(=O)c2ccc(-c3cc(O)ccc3C)c(C)c2)CC1,JAK2 JH1,"binding, competition with immobilised ligand",1 µM,,remaining binding,89%
CCC(CC)C(=O)/C=C/C(=O)N1CCc2cc(Nc3ncc(C)c(-c4cnn(C(C)C)c4)n3)ccc2C1,JAK2,ADP-Glo kinase,,reference: IC50 JAK3 over IC50 JAK2,selectivity ratio,> 3.11
CC(C)=CC1OC(C)(C)C2C=C3C(=O)C(Cl)=CC(O)C3C3C(O)C4OC4C(=O)C132 (stereo not shown),JAK2 JH1,"cell-free assay, competition with immobilised ligand",10 µM,,remaining binding,43%
COc1c(OCCCN2CCOCC2)ccc2c1N=C(NC(=O)c1cnc(N)nc1)N1CCN=C21,JAK2,"kinase activity, inhibitor",1 µM,reference: untreated control,remaining activity,116%
Cc1cnc2nc1Nc1cccc(c1)COC/C=C/COCc1cc(ccc1OCCN1CCOCC1)N2,JAK2,"inhibitor, Z'-LYTE kinase",1000 nM,,inhibition,100% and 102% and 107%
COc1cc(Nc2nccc(-c3cnn4nc(OC)ccc34)n2)cc(C(F)(F)F)c1,JAK2 JH1,"binding, competition with immobilised ligand",1 µM,,remaining binding,87%
CN1CCN(Cc2ccc(NC(=O)c3cccc(C#Cc4cnc(N)c5ncccc45)c3)cc2C(F)(F)F)CC1,JAK2 JH1,"cell-free assay, competition with immobilised ligand",50 nM,,remaining binding,21%
Cc1cnc2nc1Nc1cc(F)cc(c1)COC/C=C/COCc1cc(ccc1OCCN1CCCC1)N2,JAK2,"inhibitor, Z'-LYTE kinase",333.3 nM,,inhibition,95.9% and 97.2% and 96.9%
CNC(=O)C[C@H](Cc1ccc(C#N)cc1)NC(=O)c1cc(-c2ccc(CN[C@H](C)c3ccc(C)cc3)o2)ccc1Cl,JAK2,"enzyme activity, inhibitor",1 µM,,activity vs control,101%
O=C=[N][Ru-4]123([n]4c5ccc(O)cc5c5c6c(c7cc(F)c[n+]1c7c54)C(=O)NC6=O)[S+]1CC[S+]2CC[S+]3CC1 (stereo not shown),JAK2,enzyme activity,"100 nM, human enzyme, added: 10 µM ATP",reference: untreated,remaining activity,108%
CC(=O)N1c2ccc(-c3ccc(CNC(=O)c4cn5cc(-c6cnc(N)nc6)nc(N6CCOCC6)c5n4)cc3)cc2CC[C@@H]1C,JAK2,KINOMEscan,10 µM,,remaining binding,48%
Cc1cnc(Nc2ccc3c(c2)CCN(C(=O)/C=C/C(=O)C2CCCC2)C3)nc1-c1cnn(C(C)C)c1,JAK2,ADP-Glo kinase,,reference: IC50 JAK1 over IC50 JAK2,selectivity ratio,1.6
c1ccc2c(Nc3cc(C4CCC4)[nH]n3)nc(Nc3ccc4nc[nH]c4c3)nc2c1,JAK2,"enzyme activity, inhibitor",0.25 µM,,remaining activity,2%
Cc1cnc(Nc2ccc3c(c2)CCN(C(=O)/C=C/CC(C)C)C3)nc1-c1cnn(C(C)C)c1,JAK2,ADP-Glo kinase,,reference: IC50 JAK1 over IC50 JAK2,selectivity ratio,0.17
O=C(O)CCC(=O)c1cccc(NS(=O)(=O)c2c[nH]c3ncccc23)c1,JAK2,"kinase activity, radiometric",10 µM,,remaining activity,108%
CNS(=O)(=O)Nc1nccc(Cc2c(C)c3ccc(Oc4ncccc4F)cc3oc2=O)c1F,JAK2 JH1,"binding, competition with immobilised ligand",10 µM,,remaining binding,92%

# Excerpt of the above:
Compound,target,assay,setting,scale,measurement,value
CCC(CC)C(=O)/C=C/C(=O)N1CCc2cc(Nc3ncc(C)c(-c4cnn(C(C)C)c4)n3)ccc2C1,JAK2,ADP-Glo kinase,,reference: IC50 JAK3 over IC50 JAK2,selectivity ratio,> 3.11
